Results collected from several papers.
± gives the spread as reported.
UniProt P31153, sequence (whole entry, looked up): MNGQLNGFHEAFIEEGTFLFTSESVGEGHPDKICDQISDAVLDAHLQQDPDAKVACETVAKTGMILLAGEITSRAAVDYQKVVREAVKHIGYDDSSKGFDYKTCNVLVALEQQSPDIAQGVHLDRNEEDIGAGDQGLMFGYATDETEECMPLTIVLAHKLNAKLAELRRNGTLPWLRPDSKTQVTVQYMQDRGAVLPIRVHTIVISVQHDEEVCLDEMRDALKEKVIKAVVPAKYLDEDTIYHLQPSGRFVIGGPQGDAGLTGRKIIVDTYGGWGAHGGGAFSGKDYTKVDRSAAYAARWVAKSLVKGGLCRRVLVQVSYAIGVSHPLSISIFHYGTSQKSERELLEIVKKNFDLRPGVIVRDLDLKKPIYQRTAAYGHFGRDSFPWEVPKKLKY
UniProt Q15303, sequence (whole entry, looked up): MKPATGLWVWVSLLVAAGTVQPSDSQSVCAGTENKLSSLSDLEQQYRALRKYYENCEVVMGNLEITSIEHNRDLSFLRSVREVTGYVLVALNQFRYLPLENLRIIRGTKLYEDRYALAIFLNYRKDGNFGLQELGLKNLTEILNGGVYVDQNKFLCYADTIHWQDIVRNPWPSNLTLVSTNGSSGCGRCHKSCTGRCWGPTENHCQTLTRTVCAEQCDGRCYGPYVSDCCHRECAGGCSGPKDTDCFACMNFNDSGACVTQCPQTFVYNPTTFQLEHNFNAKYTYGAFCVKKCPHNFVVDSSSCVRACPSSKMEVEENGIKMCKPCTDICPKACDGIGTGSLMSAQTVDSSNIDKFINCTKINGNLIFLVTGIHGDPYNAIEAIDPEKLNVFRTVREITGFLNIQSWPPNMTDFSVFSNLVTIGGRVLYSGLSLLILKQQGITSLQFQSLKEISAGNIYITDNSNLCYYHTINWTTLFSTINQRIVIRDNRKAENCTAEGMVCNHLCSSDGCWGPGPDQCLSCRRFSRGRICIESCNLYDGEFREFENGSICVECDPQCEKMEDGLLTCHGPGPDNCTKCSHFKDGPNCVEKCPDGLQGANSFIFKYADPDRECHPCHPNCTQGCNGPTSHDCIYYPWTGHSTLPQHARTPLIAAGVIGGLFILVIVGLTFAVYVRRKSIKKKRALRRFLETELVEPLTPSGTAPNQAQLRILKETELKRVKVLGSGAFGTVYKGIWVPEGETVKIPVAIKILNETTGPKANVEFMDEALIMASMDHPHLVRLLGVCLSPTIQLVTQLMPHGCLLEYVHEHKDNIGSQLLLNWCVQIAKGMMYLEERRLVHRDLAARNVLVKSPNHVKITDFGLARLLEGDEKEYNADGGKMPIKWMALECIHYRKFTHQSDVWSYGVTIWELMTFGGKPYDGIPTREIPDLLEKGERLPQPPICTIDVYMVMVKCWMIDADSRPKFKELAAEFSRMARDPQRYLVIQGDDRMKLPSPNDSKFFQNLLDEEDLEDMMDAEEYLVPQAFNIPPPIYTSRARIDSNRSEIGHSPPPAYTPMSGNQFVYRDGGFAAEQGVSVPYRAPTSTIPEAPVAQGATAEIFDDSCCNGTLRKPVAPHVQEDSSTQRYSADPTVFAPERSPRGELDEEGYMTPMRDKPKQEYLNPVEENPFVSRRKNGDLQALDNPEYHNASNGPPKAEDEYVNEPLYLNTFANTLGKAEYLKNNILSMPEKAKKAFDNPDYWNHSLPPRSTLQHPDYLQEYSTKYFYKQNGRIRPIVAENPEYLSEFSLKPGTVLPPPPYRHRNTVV
UniProt P40337, sequence (whole entry, unmodified, looked up): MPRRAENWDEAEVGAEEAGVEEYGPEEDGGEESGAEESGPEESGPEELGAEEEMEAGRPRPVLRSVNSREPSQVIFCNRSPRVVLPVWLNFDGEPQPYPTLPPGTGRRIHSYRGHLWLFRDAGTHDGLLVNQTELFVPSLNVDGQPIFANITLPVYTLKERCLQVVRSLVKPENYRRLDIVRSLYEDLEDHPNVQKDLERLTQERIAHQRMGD
UniProt Q04609, sequence (whole entry, looked up): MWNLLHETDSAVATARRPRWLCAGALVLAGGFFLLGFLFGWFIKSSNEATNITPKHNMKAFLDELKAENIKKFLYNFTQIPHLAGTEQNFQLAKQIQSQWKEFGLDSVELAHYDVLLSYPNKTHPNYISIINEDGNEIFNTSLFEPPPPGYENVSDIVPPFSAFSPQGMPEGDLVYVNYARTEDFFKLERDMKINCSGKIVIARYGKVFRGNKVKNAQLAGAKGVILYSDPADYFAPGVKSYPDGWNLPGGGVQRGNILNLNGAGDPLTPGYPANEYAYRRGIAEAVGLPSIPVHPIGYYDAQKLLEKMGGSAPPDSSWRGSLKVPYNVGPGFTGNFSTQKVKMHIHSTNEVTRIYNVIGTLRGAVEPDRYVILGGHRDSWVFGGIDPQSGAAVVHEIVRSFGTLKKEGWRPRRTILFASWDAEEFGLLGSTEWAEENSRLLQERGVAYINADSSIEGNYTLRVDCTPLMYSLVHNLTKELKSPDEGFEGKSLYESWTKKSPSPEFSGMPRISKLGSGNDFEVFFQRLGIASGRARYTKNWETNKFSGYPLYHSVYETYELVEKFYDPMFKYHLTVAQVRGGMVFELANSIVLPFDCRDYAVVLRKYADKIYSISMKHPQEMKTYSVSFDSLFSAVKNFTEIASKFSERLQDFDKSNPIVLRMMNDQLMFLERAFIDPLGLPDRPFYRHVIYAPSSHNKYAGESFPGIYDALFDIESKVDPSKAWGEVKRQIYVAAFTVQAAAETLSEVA
UniProt P17931, sequence (whole entry, unmodified, looked up): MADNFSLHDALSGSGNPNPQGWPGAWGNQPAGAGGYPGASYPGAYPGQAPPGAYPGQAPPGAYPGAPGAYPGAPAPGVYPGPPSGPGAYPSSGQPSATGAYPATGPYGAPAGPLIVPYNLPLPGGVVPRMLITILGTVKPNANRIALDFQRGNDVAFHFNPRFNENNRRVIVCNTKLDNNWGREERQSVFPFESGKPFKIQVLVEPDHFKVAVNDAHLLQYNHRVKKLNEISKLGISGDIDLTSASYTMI
UniProt P29317, sequence (whole entry, looked up): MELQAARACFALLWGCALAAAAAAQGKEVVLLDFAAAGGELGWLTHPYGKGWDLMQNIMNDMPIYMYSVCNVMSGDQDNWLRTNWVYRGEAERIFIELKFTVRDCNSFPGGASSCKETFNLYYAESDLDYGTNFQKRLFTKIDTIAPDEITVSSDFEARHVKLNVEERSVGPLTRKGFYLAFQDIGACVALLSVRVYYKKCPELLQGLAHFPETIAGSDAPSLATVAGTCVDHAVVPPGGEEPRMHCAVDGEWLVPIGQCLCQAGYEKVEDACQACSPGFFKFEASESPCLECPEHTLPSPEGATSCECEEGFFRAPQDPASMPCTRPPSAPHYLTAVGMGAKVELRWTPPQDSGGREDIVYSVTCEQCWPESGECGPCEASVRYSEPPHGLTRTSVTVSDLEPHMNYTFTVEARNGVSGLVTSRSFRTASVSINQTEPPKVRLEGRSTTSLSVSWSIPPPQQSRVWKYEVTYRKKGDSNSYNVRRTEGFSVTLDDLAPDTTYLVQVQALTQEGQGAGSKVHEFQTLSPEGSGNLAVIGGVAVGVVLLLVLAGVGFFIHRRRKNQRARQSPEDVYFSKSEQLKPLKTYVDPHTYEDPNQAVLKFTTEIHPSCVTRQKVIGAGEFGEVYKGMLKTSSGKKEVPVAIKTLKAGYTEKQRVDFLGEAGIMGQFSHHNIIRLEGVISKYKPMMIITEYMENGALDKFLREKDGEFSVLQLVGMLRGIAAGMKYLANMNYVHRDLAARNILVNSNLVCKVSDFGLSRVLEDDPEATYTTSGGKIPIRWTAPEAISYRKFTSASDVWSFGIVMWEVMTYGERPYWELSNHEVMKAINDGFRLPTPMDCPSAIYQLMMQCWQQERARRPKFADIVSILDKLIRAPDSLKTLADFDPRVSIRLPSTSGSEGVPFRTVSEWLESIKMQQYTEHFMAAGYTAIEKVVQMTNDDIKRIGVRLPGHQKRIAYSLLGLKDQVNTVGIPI
UniProt P11142, sequence (whole entry, looked up): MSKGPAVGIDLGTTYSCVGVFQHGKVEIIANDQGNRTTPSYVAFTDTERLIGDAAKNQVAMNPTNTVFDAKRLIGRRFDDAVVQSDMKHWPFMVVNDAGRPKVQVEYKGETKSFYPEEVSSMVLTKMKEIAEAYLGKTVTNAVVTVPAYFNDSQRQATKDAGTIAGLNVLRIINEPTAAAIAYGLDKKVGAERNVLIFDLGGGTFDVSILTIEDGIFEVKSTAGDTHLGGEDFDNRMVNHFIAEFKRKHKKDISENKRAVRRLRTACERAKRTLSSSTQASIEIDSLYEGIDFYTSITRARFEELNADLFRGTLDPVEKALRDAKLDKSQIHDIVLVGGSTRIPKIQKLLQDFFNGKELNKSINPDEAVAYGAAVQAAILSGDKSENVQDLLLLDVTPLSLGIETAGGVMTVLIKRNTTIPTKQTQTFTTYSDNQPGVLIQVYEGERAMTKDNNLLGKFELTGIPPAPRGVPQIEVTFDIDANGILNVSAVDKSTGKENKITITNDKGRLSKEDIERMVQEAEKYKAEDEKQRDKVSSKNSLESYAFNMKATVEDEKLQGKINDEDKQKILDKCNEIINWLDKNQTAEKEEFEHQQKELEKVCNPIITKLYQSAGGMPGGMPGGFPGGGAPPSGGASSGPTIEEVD
UniProt P11511, sequence (whole entry, looked up): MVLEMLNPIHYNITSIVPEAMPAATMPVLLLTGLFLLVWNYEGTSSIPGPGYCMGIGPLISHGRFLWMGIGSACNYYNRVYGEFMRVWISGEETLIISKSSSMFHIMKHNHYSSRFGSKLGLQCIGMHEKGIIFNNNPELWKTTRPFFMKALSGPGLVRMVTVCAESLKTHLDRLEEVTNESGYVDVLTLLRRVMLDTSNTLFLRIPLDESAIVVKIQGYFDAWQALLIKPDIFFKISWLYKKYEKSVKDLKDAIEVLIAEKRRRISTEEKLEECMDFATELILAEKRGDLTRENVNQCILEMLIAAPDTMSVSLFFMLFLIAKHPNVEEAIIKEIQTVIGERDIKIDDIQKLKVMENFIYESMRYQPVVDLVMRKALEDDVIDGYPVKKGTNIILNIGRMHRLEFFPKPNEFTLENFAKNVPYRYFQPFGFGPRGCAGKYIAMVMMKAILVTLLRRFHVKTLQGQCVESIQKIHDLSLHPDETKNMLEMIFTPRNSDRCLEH

| SMILES | target | assay | system | conditions | scale | endpoint | value |
| --- | --- | --- | --- | --- | --- | --- | --- |
| COc1cccc(C(=O)N[C@H]2[C@@H](O)[C@@H](CO)O[C@@H](S[C@@H]3O[C@H](CO)[C@H](O)[C@H](NC(=O)c4cccc(OC)c4)[C@H]3OS(=O)(=O)O)[C@@H]2O)c1 | Galectin-3 (LGALS3, Homo sapiens, UniProt P17931) | ITC |  |  |  | –TΔS | 3.73 ± 0.0956 kcal/mol |
| O=C([O-])CN(CCN(CC(=O)[O-])Cc1cc(CCC(=O)NCCCCCC(=O)NCCCC[C@H](NC(=O)N[C@@H](CCC(=O)O)C(=O)O)C(=O)O)ccc1O)Cc1cc(CCC(=O)O)ccc1[O-].[68Ga+3] | Glutamate carboxypeptidase 2 (FOLH1, Homo sapiens, UniProt Q04609) | PET/CT | prostate cancer patients, primary prostate lesions | 60 min post-injection |  | SUVmax | 23.1 ± 17.7 |
| CSCC[C@H](NC(=O)[C@H](CCC(N)=O)NC(=O)[C@H](Cc1ccccc1)NC(=O)CNC(=O)CNC(=O)[C@@H](NC(C)=O)[C@@H](C)O)C(=O)N[C@@H](C)C(=O)N[C@@H](CC(C)C)C(=O)N[C@H](C(=O)O)[C@@H](C)O | Heat shock cognate 71 kDa protein, substrate-binding domain (HSPA8, Homo sapiens, UniProt P11142) | binding, competition fluorescence polarization |  |  | relative to: Ac-NRLLLTG Ki over cpd Ki | Ki ratio | ≥ 5 fold |
| CC[C@H](C)[C@H](NC(=O)[C@@H]1CCCN1C(=O)[C@H](CCCCN)NC(=O)[C@H](CO)NC(=O)[C@H](CO)NC(=O)[C@H](Cc1ccc(O)cc1)NC(=O)[C@H](CO)NC(=O)[C@H](C)NC(=O)[C@H](CO)NC(=O)[C@@H](N)Cc1ccccc1)C(=O)N[C@@H](CCC(N)=O)C(=O)N[C@H](C(=O)N[C@@H](CCC(N)=O)C(=O)N[C@H](C(=O)N[C@@H](CO)C(=O)N[C@@H](CC(N)=O)C(=O)NCC(=O)N[C@@H](CCSC)C(=O)N[C@@H](CC(=O)O)C(=O)N[C@@H](CC(N)=O)C(=O)N[C@@H](C)C(=O)N[C@@H](CO)C(=O)N[C@@H](C)C(=O)N1CCC[C@H]1C(=O)N[C@H](C(=O)O)C(C)C)C(C)C)[C@@H](C)O | Peptide cyclase 1 (Gypsophila vaccaria, UniProt R4P353, S562A) | ITC |  | pH 8.0, 25 °C |  | ΔG | -9.37 kcal/mol |
| CC[C@H](C)[C@H](NC(=O)[C@@H](NC(=O)[C@H](CS)NC(=O)[C@H](CCSC)NC(C)=O)[C@@H](C)O)C(=O)N[C@@H](CC(=O)O)C(=O)N[C@@H](Cc1ccc(F)cc1)C(=O)N[C@@H](CC(=O)O)C(=O)N[C@@H](CCC(=O)O)C(=O)N[C@@H](Cc1ccc(O)cc1)C(=O)N[C@@H](CCCNC(=N)N)C(=O)N[C@@H](Cc1ccc(F)cc1)C(=O)N[C@@H](CCCNC(=N)N)C(=O)N[C@@H](CCCCN)C(=O)N[C@H](C(N)=O)[C@@H](C)O | human BRCA1 BRCT K1702M | fluorescence polarization |  | concentration not given, FAM-labelled compound | relative to: wild-type BRCA1 BRCT, higher = weaker binding | binding affinity fold reduction | ~6 fold |
| N#Cc1cnc2sc(C(=O)O)cc2c1N1CCc2[nH]nc(C(=O)N[C@@H](CC(=O)NCCOCCN3CCOCC3)c3cccc(Br)c3)c2C1 | Interleukin-1 receptor-like 2, D1-D2 domains (IL1RL2, Homo sapiens, UniProt Q9HB29) | SPR |  | IL-36R D1-D2 |  | koff | 0.06 ± 0.0002 s⁻¹ |
| COc1cc(Cc2c[nH]c3ncc(C(F)(F)F)cc23)cc(OC)c1 | Fibroblast growth factor receptor 1 (FGFR1, Homo sapiens, UniProt P11362) |  |  | 300 K |  | ligand efficiency | 0.44 |
| Cc1cc(CC(=O)N2C[C@H](O)C[C@H]2C(=O)NCc2ccccc2)on1 | von Hippel-Lindau disease tumor suppressor, with Elongin B/C (VHL, Homo sapiens, UniProt P40337) | isothermal titration calorimetry |  | 25 °C |  | binding free energy (ΔG) | -4.4 ± 0.02 kcal/mol |
| O=Cc1ccc2cccc(O)c2n1 | CD209 antigen (CD209, Homo sapiens, UniProt Q9NNX6) | binding, plate-based HRP |  | 0.5 mM, immobilized protein | relative to: DMSO | activation | ≥ 50% |
| CC[C@H](C)[C@H](NC(=O)[C@H](CC(N)=O)NC(=O)[C@H](CC(N)=O)NC(=O)[C@H](CCCNC(=N)N)NC(=O)[C@H](CC(N)=O)NC(=O)[C@H](CCCNC(=N)N)NC(=O)[C@H](CCCCN)NC(=O)[C@@H](NC(=O)[C@H](CC(N)=O)NC(=O)[C@H](CCSC)NC(=O)[C@H](CC(C)C)NC(=O)[C@H](Cc1c[nH]c2ccccc12)NC(=O)[C@@H]1CSCc2ccc(cc2)-c2ccc(cc2)CSC[C@@H](NC(=O)[C@H](CO)NC(=O)[C@H](CC(=O)O)NC(=O)[C@H](CC(C)C)NC(=O)[C@H](Cc2ccc(O)cc2)NC(=O)[C@H](CCCCN)NC(=O)[C@H](CO)NC(=O)[C@H](Cc2ccc(O)cc2)NC(=O)[C@H](CC(=O)O)NC(=O)[C@H](CO)NC(=O)[C@@H](NC(=O)[C@H](Cc2ccccc2)NC(=O)[C@@H](NC(=O)CNC(=O)[C@H](CCC(N)=O)NC(=O)[C@@H](CO)NC(=O)[C@@H](N)Cc2c[nH]cn2)[C@@H](C)O)[C@@H](C)O)C(=O)N[C@@H](CCCNC(=N)N)C(=O)N[C@@H](C)C(=O)N[C@@H](CCC(N)=O)C(=O)N[C@@H](CC(=O)O)C(=O)N[C@@H](Cc2ccccc2)C(=O)N[C@@H](C(C)C)C(=O)N1)[C@@H](C)O)C(=O)N[C@@H](C)C(N)=O | Glucagon receptor (GCGR, Homo sapiens, UniProt P47871) | CRE luciferase reporter, agonist |  | concentration not given | relative to: linear counterpart | activity increase | 16 fold |
| CCSc1nc2c([nH]1)c(=S)n(C)c(=S)n2C | Androgen receptor (AR, Homo sapiens, UniProt P10275) | reporter gene, antagonist, PSA-luciferase | HeLa-A6 | 10 µM, 24 h, with: 5 nM dihydrotestosterone | relative to: maximal activity | remaining activity | 86% |
| N#Cc1cccc(/C=C/C(=O)c2ccc(O)cc2)c1 | Thioredoxin domain-containing protein 5 (TXNDC5, Homo sapiens, UniProt Q8NBS9) | enzyme activity, PDI reductase |  | 40 µM, protein 1 µM |  | activity class | inactive |
| CCOCCNC(=O)N1CCC[C@H](c2n[nH]c(-c3ccccc3)n2)C1 | Aromatase (CYP19A1, Homo sapiens, UniProt P11511) | enzyme activity, inhibitor, MFC to HFC conversion |  | 20 µM, with: MFC substrate |  | apparent Vmax | 0.56 pmol HFC/min/pmol P450 |
| N#C/C(=C\c1cccc(-c2cn[nH]c2)c1)C(N)=O | Ribosomal protein S6 kinase alpha-5 (RPS6KA5, Homo sapiens, UniProt O75582, C440V) | autophosphorylation, inhibitor | transfected COS-7 | with: PMA |  | max non-inhibitory concentration | > 20 µM |
| CC(C)=CCCC(C)=CCc1cc(-c2coc3cc(OC4OC(C(=O)O)C(O)C(O)C4O)ccc3c2=O)ccc1O (stereo not shown) | UDP-glucuronosyltransferase 1A1 (UGT1A1, Homo sapiens, UniProt P22309) | glucuronidation of cholic acid, substrate | recombinant enzyme | substrate inhibition constant |  | Ki | 53.7 ± 8.03 µM |
| NC(=O)C1CCCCNC(=O)C(CCCNC(=O)c2cnccn2)NC(=O)C(Cc2ccco2)NC(=O)C(CC2CC2)NC(=O)C=CC(=O)N1 (stereo not shown) | Receptor tyrosine-protein kinase erbB-4 (ERBB4, Homo sapiens, UniProt Q15303) | DNA-templated library selection |  | one selection round |  | enrichment factor | 1.2 |
| N#Cc1cnc(Nc2nc3ccccc3o2)nc1-c1ccccc1F | Metabotropic glutamate receptor 5 (Grm5, Rattus norvegicus, UniProt P31424) | calcium mobilization, negative allosteric modulator |  | with: glutamate EC80 | relative to: maximal glutamate response | maximal response | 1.8 ± 0.4% |
| CC(C)(C)CCN1C[C@@H]2[C@@H](CNC(=O)c3cc(Cl)cc(Cl)c3)[C@@H]2C1.Cl | Voltage-dependent L-type calcium channel subunit alpha-1F (Homo sapiens, UniProt O60840) | calcium current, whole-cell patch clamp | HEK-293T cells | 50 nM, holding potential -50 mV, with: β2 and α2δ subunits |  | activation slope factor k | 8.45 ± 0.2 mV |
| CC(C)=CCC/C(C)=C/CC/C(C)=C/Cc1c(O)cc(CO)c(C=O)c1O | StaI from Stachybotrys chartarum | substrate |  | 30 min, pH 7.0, 45 °C |  | Km | 817 µM |
| Nc1ncnc2c1ncn2[C@@H]1O[C@H](COP(=O)(O)NP(=O)(O)OP(=O)(O)O)[C@@H](O)[C@H]1O | S-adenosylmethionine synthase isoform type-2 (MAT2A, Homo sapiens, UniProt P31153) | AdoMet formation, substrate |  | enzyme 25 µM, with: methionine |  | steady-state rate | 0.0019 ± 0.00038 s⁻¹ |
| CCNc1nc(Nc2cccc(S(=O)(=O)NC)c2)ncc1-c1ccc(F)c(OC)c1 | Ephrin type-A receptor 2 (EPHA2, Homo sapiens, UniProt P29317) |  |  | 10 µM |  | thermal shift | 4.3 K |
| Nc1nc2c(ncn2[C@@H]2O[C@@H]3COP(=O)(O)O[C@H]3[C@H]2O)c(=O)[nH]1 | cGMP-specific 3',5'-cyclic phosphodiesterase (PDE5A, Homo sapiens, UniProt O76074) | hydrolysis, substrate, Lumit |  |  |  | specific activity | 78 nmol/min/mg |
| COc1ccc(-c2cc(C(F)(F)F)nc(SCC(=O)N(C)c3ccccc3)n2)cc1 | Glucagon-like peptide 1 receptor (GLP1R, Homo sapiens, UniProt P43220) | affinity cooperativity, allosteric modulator | HEK-293T overexpressing GLP1R | with: GLP-1(9-36) |  | cooperativity factor alpha | 2.9 |
| CCCN(CC(=O)N(CC(N)=O)Cc1cn(CCCNC(=O)CCCOc2cccc(-c3nc4ccc(-c5nc6ccc(N7CCN(C)CC7)cc6[nH]5)cc4[nH]3)c2)nn1)C(=O)CNCc1cn(CCCNC(=O)CCCOc2cccc(-c3nc4ccc(-c5nc6ccc(N7CCN(C)CC7)cc6[nH]5)cc4[nH]3)c2)nn1 | MBNL1–r(CUG)109 complex | MBNL1 displacement | 0.65 pmol r(CUG)109 | unit not given, with: yeast tRNA 3.7 µM | relative to: monomer 2 IC50 per module | multivalent effect | 2.2 |
| CN[C@@H](C)C(=O)N[C@H]1CCCCNC(=O)[C@H](Cc2ccccc2)NC(=O)[C@@H]2CCCN2C(=O)[C@@H](NC(=O)[C@H](C)NC)CCCCNC(=O)[C@H](Cc2ccccc2)NC(=O)[C@@H]2CCCN2C1=O | E3 ubiquitin-protein ligase XIAP, linker-BIR2-BIR3 (XIAP, Homo sapiens, UniProt P98170) | caspase-3/7 activity, antagonist | MDA-MB-231 cell lysate | with: 50 nM XIAP linker-BIR2-BIR3 protein |  | concentration for full caspase restoration | 500 nM |

Repeated from above:
| SMILES | target | assay | system | conditions | scale | endpoint | value |
| --- | --- | --- | --- | --- | --- | --- | --- |
| N#Cc1cnc2sc(C(=O)O)cc2c1N1CCc2[nH]nc(C(=O)N[C@@H](CC(=O)NCCOCCN3CCOCC3)c3cccc(Br)c3)c2C1 | Interleukin-1 receptor-like 2, D1-D2 domains (IL1RL2, Homo sapiens, UniProt Q9HB29) | SPR |  | IL-36R D1-D2 |  | koff | 0.06 ± 0.0002 s⁻¹ |
| Cc1cc(CC(=O)N2C[C@H](O)C[C@H]2C(=O)NCc2ccccc2)on1 | von Hippel-Lindau disease tumor suppressor, with Elongin B/C (VHL, Homo sapiens, UniProt P40337) | isothermal titration calorimetry |  | 25 °C |  | binding free energy (ΔG) | -4.4 ± 0.02 kcal/mol |
